Published values gathered from unrelated publications.
A part holds a random share of what one study measured.

Study 1
Target: Histone acetyltransferase KAT6A, both winged helices, GST fusion (KAT6A, Homo sapiens, UniProt Q92794, residues 1-181)
Technique: protein binding microarray
Form: double-stranded DNA, one strand shown
Medium: in vitro
Concentration: not given
Setting: 8-mer, flanks averaged, mean of 2 arrays, mostly near background
Relative to: not given
Direction: higher = stronger binding
Quantity: E-score
Residues (chain): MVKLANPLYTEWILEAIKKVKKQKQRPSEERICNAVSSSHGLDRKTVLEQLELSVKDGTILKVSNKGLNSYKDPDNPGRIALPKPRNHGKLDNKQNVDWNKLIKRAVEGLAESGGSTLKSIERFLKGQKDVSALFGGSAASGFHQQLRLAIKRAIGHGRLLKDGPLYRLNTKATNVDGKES
CACGTCTA: -0.0231
ACTTGGTA: -0.204
CACACTCC: -0.0646
CAGTGGGA: -0.168
CTATAGGA: -0.0229
CTGTCTTA: 0.0498
ACACGAGG: -0.245
AACTGTGT: -0.123
CGCTAGCG: 0.256
CCATTAAC: -0.114
ATTTACAC: -0.0403
GAAGGAGA: -0.0787
CGAACGGC: 0.303
GAGGGAGC: 0.0172
CATGAAAA: -0.195
AGGGCGGC: 0.128

Study 2
Target: Prothrombin, mature alpha-thrombin (F2, Homo sapiens, UniProt P00734)
Technique: aptamer microarray, sandwich
Form: DNA with 2'F-ANA
Medium: in vitro
Concentration: 200 nM
Setting: whole 15-mer aptamer, many near background
Together with: Cy3 exosite-II aptamer, 400 nM
Direction: higher = stronger binding
Quantity: mean fluorescence intensity
Oligonucleotide: GGTTGGTGTGGTTGG
2'F-ANA at 3 4 6 7 10 11 12 13: 242 a.u.
2'F-ANA at 1 2 5 6 7 11 13 14: 48.2 a.u.
2'F-ANA at 1 3 4 8 9 12 13 14: 71.8 a.u.
2'F-ANA at 3 5 6 12: 277 a.u.
2'F-ANA at 3 5 6 9 11 12 14 15: 58.4 a.u.
2'F-ANA at 1 3 5 7 8 10 11 12 13 15: 52.5 a.u.
2'F-ANA at 2 4 7 8 9 10 13 14: 68.7 a.u.
2'F-ANA at 2 5 7 9 10 11 12 15: 50.8 a.u.
2'F-ANA at 2 3 4 5 7 9 10 11 13 14: 51.7 a.u.
2'F-ANA at 1 2 3 4 5 10 12 15: 62.9 a.u.
2'F-ANA at 4 7 8 9 14: 109 a.u.
2'F-ANA at 1 2 3 5 6 7 10 11 13 14: 53.1 a.u.
2'F-ANA at 2 3 4 8 14: 395 a.u.
2'F-ANA at 1 3 4 7 8 9 10 12: 107 a.u.
2'F-ANA at 9 10 12 13 14: 109 a.u.
2'F-ANA at 1 2 4 5 8 9 10 11 12 13 15: 140 a.u.
2'F-ANA at 2 4 5 6 7 8 9 11 13 14: 48.4 a.u.
2'F-ANA at 1 4 5 7 8 13 14: 55.9 a.u.
2'F-ANA at 2 6 10 12 14 15: 119 a.u.
2'F-ANA at 1 3 4 5 6 8 11 14: 48.7 a.u.
2'F-ANA at 3 7 8 10 11 12 14: 383 a.u.
2'F-ANA at 1 3 6 8 11 13 14: 84.5 a.u.
2'F-ANA at 2 3 4 6 7 8 9 11 12 13: 658 a.u.
2'F-ANA at 2 4 7 11 12 15: 420 a.u.
2'F-ANA at 1 6 7 8 10 11 13 15: 53.4 a.u.

Study 3
Target: Interferon regulatory factor 7, full length, phosphomimetic (IRF7, Homo sapiens, UniProt Q92985, residues 1-503, S101K/S471D/S472D/S475D/S476D/S477D/S483D/S484D/S487D)
UniProt Q92985, sequence (whole entry, unmodified, looked up): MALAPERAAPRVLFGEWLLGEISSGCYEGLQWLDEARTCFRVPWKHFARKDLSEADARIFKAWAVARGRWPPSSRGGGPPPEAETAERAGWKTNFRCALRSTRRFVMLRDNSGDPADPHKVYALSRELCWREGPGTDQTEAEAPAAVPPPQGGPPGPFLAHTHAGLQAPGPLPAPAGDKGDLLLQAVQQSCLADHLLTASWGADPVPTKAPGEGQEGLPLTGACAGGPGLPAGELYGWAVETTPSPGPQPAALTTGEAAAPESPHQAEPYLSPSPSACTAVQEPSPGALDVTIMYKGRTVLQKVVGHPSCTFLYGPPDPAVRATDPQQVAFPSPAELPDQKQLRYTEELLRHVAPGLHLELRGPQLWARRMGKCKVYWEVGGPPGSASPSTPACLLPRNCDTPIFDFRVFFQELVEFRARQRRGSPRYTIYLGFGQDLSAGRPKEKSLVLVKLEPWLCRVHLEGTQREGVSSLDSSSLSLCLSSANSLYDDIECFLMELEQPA
Technique: protein-binding microarray
Form: double-stranded DNA, one strand shown
Medium: in vitro
Concentration: 250 nM
Setting: 60-bp whole probe
Together with: salmon DNA 0.4 mg/ml
Relative to: random background probes
Direction: higher = stronger binding
Quantity: log fluorescence
All sequences stand within: GCCTAGCAC … GTCTTGATTCGCTTGACGCTGCTG
CATCCGTTTCTTCTAGACTTGTGCTAG: 1.49 z-score
TCATCATTGCCTATTTTTCCGTGCTAG: 0.359 z-score
GACGGTTTCAACACTGGGGACGTGCTA: 0.337 z-score
TTAGGTATCCTACTGCTTGAGTGCTAG: -0.0777 z-score
TTAGGATTGGACTTTCGGTTAGTGCTA: 0.509 z-score
GGCGGTATCGACTTTCGGGACGTGCTA: 0.901 z-score
GACGATGTCAGTTCCGAGACGTGCTAG: -0.14 z-score
GACGGTTTCAGGACTGGGGACGTGCTA: 0.752 z-score
GAATTTCCCACTTTCAGTTCGTGCTAG: 5 z-score
TTAGGTTTCGGACTGGGTTTGTGCTAG: 3.6 z-score
GACGATCTCAGTATCGCGACGTGCTAG: -0.0696 z-score
TTAGGTATCGGGGTTCGGTTAGTGCTA: 0.911 z-score
TTAGGTTTCGGGACTGGGTTGGTGCTA: 3.57 z-score
TTAGGACTGCTACTGCGTTAGTGCTAG: -0.722 z-score
CTTAACCTGGGTCTCTGAAGGTGCTAG: -0.0619 z-score
AGTCTCTTCTGGGACTCATGGTGCTAG: 0.262 z-score
ATTTTTTTCATTATTGTTTCGTGCTAG: 1.6 z-score
TTAGGTTTCGGTCTTGGTTAGTGCTAG: 8.13 z-score
TCATCATTATTGTGTCAAACTGTGCTA: 0.469 z-score
GACGGTCACCTTTTCCTGACGTGCTAG: 0.538 z-score
GACGATATCAGGTTTCGAGACGTGCTA: 3.58 z-score
TTAGGTCTCGGTTTCGGTTCGTGCTAG: 12.9 z-score
TAGGCTCTGTGCTTTCCTGATGTGCTA: -0.538 z-score
TCCCCGGAGCTGGACAGAAGGTGCTAG: -0.72 z-score
GTAGATGCCTTTCTCTTGGAGTGCTAG: -0.294 z-score

Study 4
Target: TAR DNA-binding protein 43, full length, His tag (TARDBP, Homo sapiens, UniProt Q13148, residues 1-414)
Technique: RNA Bind-n-Seq
Form: RNA
Medium: in vitro
Concentration: 20 nM
Setting: 6-mer, flanks averaged, single round
Together with: 150 mM LiCl
Relative to: input library
Direction: higher = stronger binding
Quantity: 6-mer enrichment (R)
ACACAA: 0.871
CGGGGA: 1.08
UAUUUG: 1.21
GGCCGU: 1
AGUAAA: 0.846
GGUCCG: 0.963
CCGCGC: 0.966
GGGAAC: 0.992
GAAAAC: 0.774
UCUAGA: 0.817
UAGGCC: 0.955
UAUCGG: 0.898
GAAGUA: 0.974
ACUAAC: 0.828
AAAAAA: 1.25
AGCUCC: 0.973
GAUUAC: 0.82
AAAAUA: 0.976
GAGUCA: 0.888
AUGUGU: 1.72
GCGUUU: 1.13
AGAUCG: 0.937

Repeated from above (study 2):
2'F-ANA at 3 5 6 9 11 12 14 15: 58.4 a.u.
2'F-ANA at 1 3 5 7 8 10 11 12 13 15: 52.5 a.u.
2'F-ANA at 2 4 7 8 9 10 13 14: 68.7 a.u.
2'F-ANA at 2 5 7 9 10 11 12 15: 50.8 a.u.
2'F-ANA at 2 3 4 5 7 9 10 11 13 14: 51.7 a.u.
